# Assay results collected from several papers.
# Lines come from different studies, so protocols differ. ± gives the spread as reported.
Compound,assay,system,conditions,how to read,endpoint,result
CC(C)c1nc(CN(C)C(=O)N[C@H](C(=O)N[C@@H](Cc2ccccc2)C[C@H](O)[C@H](Cc2ccccc2)NC(=O)OCc2cncs2)C(C)C)cs1,,"healthy human volunteers, plasma","oral, dose not given, with: escitalopram plus 2D regimen",,AUC(0-24),8450 ng·h/mL
CC(C)C[C@@H]1NC(=O)[C@@H](NC(=O)CN)CSSC[C@@H]2NC(=O)[C@@H]3CSSC[C@@H](C(=O)N[C@@H](CC(N)=O)C(=O)N[C@@H](Cc4ccccc4)C(=O)N[C@@H](CO)C(=O)N[C@@H](Cc4ccccc4)C(N)=O)NC(=O)[C@H](CC(C)C)NC(=O)[C@H](CCCCN)NC(=O)[C@H](Cc4ccccc4)NC(=O)[C@H](CC(C)C)NC(=O)[C@H](CCCCN)NC(=O)[C@H](CO)NC(=O)[C@H](CSSC[C@H](NC(=O)[C@H](CCCCN)NC(=O)[C@H](Cc4c[nH]c5ccccc45)NC(=O)[C@H](Cc4c[nH]c5ccccc45)NC(=O)[C@H](Cc4ccccc4)NC(=O)[C@H](CCC(=O)O)NC1=O)C(=O)N[C@@H](CC(N)=O)C(=O)N1CCC[C@H]1C(=O)N[C@@H](CC(N)=O)C(=O)N[C@@H](CC(=O)O)C(=O)N[C@@H](CC(=O)O)C(=O)N[C@@H](CCCCN)C(=O)N3)NC(=O)[C@H](CCCCN)NC(=O)[C@H](CC(C)C)NC(=O)[C@H](CCCCN)NC(=O)[C@@H]1CCCN1C(=O)[C@H](CCCNC(=N)N)NC2=O,"ultrafiltration, HPLC",saline without serum,"50 µM, 10 min",,retained fraction,70%
Cc1sc2c(c1C)C(c1ccc(Cl)cc1)=N[C@@H](CC(=O)OC(C)(C)C)c1nnc(C)n1-2,,Ringer's with 10% beta-cyclodextrin,"time not given, plastic vessel, glass vial",relative to: nominal 50 ng/mL,recovery,91%
Cc1ccc(Nc2nccc(N(C)c3ccc4c(C)n(C)nc4c3)n2)cc1S(N)(=O)=O,,"patients, plasma","oral, 800 mg, 24 h, fasted, geometric mean, with: pantoprazole",,Cmin,26600 ng/mL
[123I]c1cncc(OC[C@@H]2CCN2)c1,SPECT,"human, low plasma nicotine, cerebellum","intravenous, dose not given",relative to: plasma,tissue/plasma ratio,19.6
"CCC1(c2ccccc2)NC(=O)N(Cc2ccccc2)C1=O (single isomer, unassigned; (+))","inhibitor, measured: metabolite M3","human liver microsomes, six donors","5 µM, with: THC 2 µM, tienilic acid, CYP3cide",,inhibition,≤ 67%
O=C(OC(C(F)(F)F)C(F)(F)F)N1CCC(CCn2cnc3ccccc32)CC1,,PBS,"20 h, pH 7.4, 20 °C",,solubility,6 µg/mL
CSCC[C@@H]1NC(=O)[C@H](CC(=O)O)NC(=O)CNC(=O)[C@H](CCCNC(=N)N)NC(=O)[C@H](C)NC(=O)[C@H](CCC(=O)O)NC(=O)[C@H](CCCNC(=N)N)NC(=O)[C@@H]2CSSC[C@@H]3NC(=O)[C@H](CO)NC(=O)[C@H]([C@@H](C)O)NC(=O)[C@@H]4CCCN4C(=O)[C@H](C)NC(=O)[C@H](Cc4c[nH]c5ccccc45)NC(=O)[C@H](CC(=O)O)NC(=O)CNC(=O)[C@H](CCCNC(=N)N)NC(=O)CNC(=O)[C@H](CCC(N)=O)NC(=O)[C@@H]4CCCN4C(=O)[C@@H](NC(=O)CNC(=O)C(C)F)CSSC[C@H](NC(=O)CNC(=O)[C@H](C)NC(=O)[C@H](CC(C)C)NC(=O)[C@H](CSSC[C@@H](C(=O)NCC(N)=O)NC(=O)[C@H]([C@@H](C)O)NC(=O)[C@H](CCCNC(=N)N)NC(=O)[C@@H]4CCCN4C1=O)NC(=O)[C@H](CC(=O)O)NC(=O)[C@H](CO)NC(=O)[C@H](CC(=O)O)NC(=O)[C@H](CCC(N)=O)NC(=O)[C@H](CO)NC3=O)C(=O)N[C@@H](C(C)C)C(=O)N2 (stereo partly drawn) [fluorine-18 labelled],,"nude mice U-87 MG xenograft, lungs","intravenous, 2.5 h",,tissue uptake,0.54 ± 0.1 %ID/g
CC[C@H](C)[C@H](NC(=O)[C@H](CCCCN)NC(=O)[C@H](Cc1c[nH]c2ccccc12)NC(=O)[C@H](Cc1c[nH]c2ccccc12)NC(=O)[C@H](CCCCN)NC(=O)[C@H](CCCCN)NC(=O)[C@H](CCCCN)NC(=O)[C@H](Cc1c[nH]c2ccccc12)NC(=O)[C@H](CCCCN)NC(=O)[C@H](CCCCN)NC(=O)[C@H](Cc1c[nH]c2ccccc12)NC(=O)[C@H](CCCCN)NC(=O)[C@H](CCCCN)NC(=O)[C@@H](NC(=O)[C@@H](NC(=O)[C@H](CCCCN)NC(=O)[C@@H](N)CCCNC(=N)N)[C@@H](C)CC)[C@@H](C)CC)C(=O)N[C@@H](Cc1c[nH]c2ccccc12)C(=O)N[C@@H](Cc1c[nH]c2ccccc12)C(=O)N[C@@H](CCCCN)C(=O)NCCOCCOCC(N)=O,ANS fluorescence,water,"30 min, room temperature",,critical aggregation concentration,~4 µg/mL
CC1(C)S[C@@H]2[C@H](NC(=O)[C@H](C(=O)O)c3ccsc3)C(=O)N2[C@H]1C(=O)O,,rat plasma,"30 ng/mL, -20 °C to room temperature, three freeze-thaw cycles",,measured concentration,29.4 ± 1.4 ng/mL
CN[C@@](C)(C[18F])C(=O)O,,"mouse, muscle","2 h, tumour-bearing",,tracer uptake,1.4 %ID/g
O=S(=O)(O)Oc1ccc(-c2cccc(Cl)c2)cc1Cl,,"rat Sprague-Dawley male, brain","intravenous, 575 µg/kg, 1 h, mean of detectable animals",,fraction of dose in brain,1.6%

# For quick reference, copied from above:
Compound,assay,system,conditions,how to read,endpoint,result
O=S(=O)(O)Oc1ccc(-c2cccc(Cl)c2)cc1Cl,,"rat Sprague-Dawley male, brain","intravenous, 575 µg/kg, 1 h, mean of detectable animals",,fraction of dose in brain,1.6%
CN[C@@](C)(C[18F])C(=O)O,,"mouse, muscle","2 h, tumour-bearing",,tracer uptake,1.4 %ID/g
